Experimental data collected from several papers.
Several values in a cell are separate wells, animals, samples, runs or records. ≈ marks a conversion by molar mass, not a printed value.

`CCCCCCCCCC(=O)N[C@@H](Cc1c[nH]c2ccccc12)C(=O)N[C@H](CC(N)=O)C(=O)N[C@@H](CC(=O)O)C(=O)N[C@@H]1C(=O)NCC(=O)N[C@@H](CCCNC(=O)OC2/C=C/CCCCC2)C(=O)N[C@@H](CC(=O)O)C(=O)N[C@H](C)C(=O)N[C@@H](CC(=O)O)C(=O)NCC(=O)N[C@H](CO)C(=O)N[C@@H]([C@H](C)CC(=O)O)C(=O)N[C@@H](CC(=O)c2ccccc2N)C(=O)O[C@@H]1C` (stereo partly drawn) — result for “peak heat flow time”: 0 h (Staphylococcus aureus; planktonic bacterial growth, isothermal microcalorimetry; MRSA; 1.5 µg/mL, 24 h, 37 °C, together with: TAG hydrogel).
`COc1ccc2c(C)nc(Nc3nc(O)cc(-c4ccccc4)n3)nc2c1` gave an AC50 of 10 µM (Mus musculus; gene silencing, high-content imaging; LDR reporter GFP cells; retest run 1).
`O=S(=O)(c1ccc(-c2ccc3ncnc(Nc4ccc(OCc5ccc(F)cc5)c(Cl)c4)c3c2)cc1)N1CCOCC1` has an EC50 of 1.7 µM (Leishmania major; parasite growth, resazurin; promastigote).
Under “lung mycoplasma load reduction”, `C=C[C@]1(C)C[C@@H](OC(=O)CSc2ccc(NC(=O)c3ccco3)cc2)[C@]2(C)[C@H](C)CC[C@]3(CCC(=O)[C@H]32)[C@@H](C)[C@@H]1O` is recorded as 3.13 log10 CFU/mL and 2.24 log10 CFU/mL and 2.83 log10 CFU/mL and 2.87 log10 CFU/mL and 4.13 log10 CFU/mL and 3.44 log10 CFU/mL and 3.46 log10 CFU/mL (Mycoplasma gallisepticum; infected chickens, lung; intramuscular, 80 mg/kg daily x3, 72 h; baseline: 0 h).
`CC1(C)[C@H](NC(=O)/C(=N\OCc2c(Cl)cccc2Cl)c2nsc(N)n2)C(=O)N1OS(=O)(=O)O` gave an MIC of 2 µg/mL (≈ 3.71 µM) (Proteus vulgaris; agar dilution; ATCC 29905, susceptible).
`COCC/N=C(\S)N/N=C(\C)c1ccccc1O` gave an Emax of 98% (Mus musculus; gene silencing, high-content imaging; LDR reporter GFP cells; 30 h, confirmation, mean of two runs).
`Nc1c(C(=O)c2ccc(Br)cc2)sc(S)c1-c1nc2ccccc2s1`: “viral titre reduction” 20% (human adenovirus type 7; plaque reduction; non-toxic concentration).
With `CN(Cc1ccc(C2(C(F)(F)F)CCC2)cc1)Cc1cccc2ccccc12` the inhibition zone was 28 mm (Trichophyton rubrum; microbial growth, disc diffusion; ATCC28188; 0.016 µg/mL, 6 days).
`CC(=O)OC[C@H]1O[C@@H](Sc2sc(C(=O)c3ccc(Cl)cc3)c(N)c2-c2nc3ccccc3s2)[C@H](OC(C)=O)[C@@H](OC(C)=O)[C@@H]1OC(C)=O`: “viral titre reduction” 10% (human adenovirus type 7; plaque reduction; non-toxic concentration).
`C[C@@H]1NC2(C(=O)N(CC(=O)O)C1=O)C1CC3CC(C1)CC2C3` (stereo partly drawn) gave an IC90 of 255 µM (Trypanosoma brucei; parasite growth; pH 7.4, blood stage).
`Clc1cc(Nc2ncnc3ccc(-c4cccc(N5CCOCC5)c4)cc23)ccc1OCc1ccccc1` gave an EC50 of 6.6 µM (Leishmania major; parasite growth, resazurin; promastigote).
The MIC50 of `C=C(NC(=O)c1csc(-c2nc3c(cc2O)-c2nc(cs2)C(=O)NC(C(C)O)C(=O)NC(=C(C)OC)c2nc(cs2)C(=O)NC2c4nc(cs4)C(=O)NC(COC(=O)c4c5c6c(cccc6n4O)COC(=O)C(OC4CC(C)(O)C(N(C)C)C(C)O4)C2OC5)c2nc-3cs2)n1)C(N)=O` (stereo not drawn) is reported as 0.0156 µg/mL (≈ 0.0109 µM) (Streptococcus pneumoniae; penicillin-resistant, 10 isolates; serum 75%).
`O=S(=O)(c1ccc(-c2ccc3ncnc(Nc4ccc(OCc5ccc(C(F)(F)F)c(F)c5)c(Cl)c4)c3c2)cc1)N1CCOCC1` has an EC50 of over 15 µM (Leishmania major; parasite growth, resazurin; promastigote).
With `COc1ccc(NC(=O)CSc2nc3c(oc4ccccc43)c(=O)n2Cc2ccco2)cc1Cl` the AC50 was 10 µM (Mus musculus; gene silencing, high-content imaging; LDR reporter GFP cells; retest run 1).
For `CC(C)(C)OC(=O)N1CCN(c2ccc(-c3ccc4ncnc(Nc5ccc(OCc6cccc(F)c6)c(Cl)c5)c4c3)cc2)CC1`, the EC50 was over 3 µM (Leishmania major; parasite growth, resazurin; promastigote).
For `N=C(S)N/N=C/c1ncc(C(F)(F)F)cc1Cl`, the Emax was 82% (Mus musculus; gene silencing, high-content imaging; LDR reporter GFP cells; 30 h, retest run 1).
`CC1(C)[C@H](NC(=O)/C(=N\OCc2c(Cl)cccc2Cl)c2csc(N)n2)C(=O)N1OS(=O)(=O)O` gave an MIC of 1 µg/mL (≈ 1.86 µM) (Shigella flexneri; agar dilution; ATCC 12022, susceptible).
With `O=S(=O)(c1ccc(-c2ccc3ncnc(Nc4ccc(OCc5cccc(F)c5)c(Cl)c4)c3c2)cc1)N1CCNCC1` the EC50 was over 15 µM (Leishmania major; parasite growth, resazurin; promastigote).
The MIC of `CC1(C)[C@H](NC(=O)/C(=N\OCc2cc(=O)c(O)cn2O)c2csc(N)n2)C(=O)N1OS(=O)(=O)O` is reported as 0.125 µg/mL (≈ 0.241 µM) (Shigella flexneri; agar dilution; ATCC 12022 susceptible).
The plaque reduction of `[2H]C([2H])(N)C([2H])([2H])NC(=O)c1cc(C2CC2)nc2c1cnn2C(C)C` is reported as 0% (Enterovirus D68; viral replication; RD, US/MO/14-18947; 10 nM).
`Cc1ccc(/C=N/N=C(\S)Nc2cccc(S(=O)(=O)N(C)C)c2)o1` gave an Emax of 50% (Mus musculus; gene silencing, high-content imaging; LDR reporter GFP cells; 30 h, retest run 2).
The upregulated genes of `CN(C)CCNC(=O)c1cccn2c(=O)c3cc4ccccc4cc3nc12` is reported as 19 genes (Trypanosoma brucei; RNA-seq; Lister 427 bloodstream form; 2 × EC50, 4 h, log2 FC 1, FDR 0.05; baseline: untreated).
With `C#CCO/N=C(\C(=O)N[C@@H]1C(=O)N(OS(=O)(=O)O)C1(C)C)c1csc(N)n1` the MIC was 0.5 µg/mL (≈ 1.2 µM) (Shigella flexneri; agar dilution; ATCC 12022, susceptible).
With `O=C(NN1C(=O)c2ccccc2NC1c1ccc([N+](=O)[O-])o1)c1ccc([N+](=O)[O-])cc1` (stereo not drawn) the Emax was 27% (Mus musculus; gene silencing, high-content imaging; LDR reporter GFP cells; 30 h, confirmation, mean of two runs).
`CCCC(C)Oc1cccc(NC(=O)c2cccnc2)c1` (stereo not drawn) gave an MIC50 of 16 µg/mL (≈ 56.3 µM) (Nakaseomyces glabratus; microbial growth, broth dilution; MY1381).
With `Cc1c(CN(C)C(=O)/C=C/c2cnc3c(c2)CC(N)C(=O)N3)oc2ccccc12` (stereo not drawn) the MIC was 8 µg/mL (≈ 20.5 µM) (Escherichia coli; broth microdilution; AR-0137).
`COc1ccc(Nc2ncnc3ccc(-c4ccc(S(=O)(=O)N5CCN(C)CC5)cc4)cc23)cc1Cl` gave an EC50 of 5.9 µM (Leishmania major; parasite growth, resazurin; promastigote).
For `CC(C)n1ncc2c(C(=O)NCC3CNC3)cc(C3CC3)nc21`, the plaque reduction was 0% (Enterovirus D68; viral replication; RD, US/MO/14-18947; 30 nM).
`O=C(c1cccc(-c2ccc3ncnc(Nc4ccc(OCc5cccc(F)c5)c(Cl)c4)c3c2)c1)N1CCCC1` has an EC50 of over 15 µM (Leishmania major; parasite growth, resazurin; promastigote).
`CC(C)(C)NCC(SS(=O)(=O)O)c1ccccc1` (stereo not drawn): “male worm burden reduction” 29% (Schistosoma mansoni; mice; 600 mg/kg single dose, 1056 h, dosed day 7, perfused 44; baseline: vehicle).
The MIC of `CC1(C)[C@H](NC(=O)/C(=N\OCC(=O)N2CCC(C(=O)O)C2)c2nsc(N)n2)C(=O)N1OS(=O)(=O)O` (stereo partly drawn) is reported as 1 µg/mL (≈ 1.87 µM) (Proteus vulgaris; agar dilution; ATCC 29905, susceptible).
The Emax of `C(=N\Nc1nc(-c2ccccn2)nc2ccccc12)/c1ccccc1` is reported as 124% (Mus musculus; gene silencing, high-content imaging; LDR reporter GFP cells; 30 h, retest, mean of two runs).
`Fc1cccc(COc2ccc(Nc3ncnc4ccc(-c5ccccc5)cc34)cc2Cl)c1` has an EC50 of 4 µM (Leishmania major; parasite growth, resazurin; promastigote).
`COc1ccccc1NC(=O)OC1C(C)C(OC)C=COC2(C)Oc3c(C)c(O)c4c(c3C2=O)C2=NC3(CCN(CC(C)C)CC3)NC2=C(NC(=O)C(C)=CC=CC(C)C(O)C(C)C(O)C1C)C4=O` (stereo not drawn) gave an MBC of 20 µM (≈ 19.1 µg/mL) (Mycobacteroides abscessus; ATCC 19977, caseum surrogate; 5 d, non-replicating).
`CCCC(=O)N1CCN(c2ccc(NC(=O)c3ccc([N+](=O)[O-])o3)cc2Cl)CC1` gave an Emax of 59% (Mus musculus; gene silencing, high-content imaging; LDR reporter GFP cells; 30 h, retest run 2).
The plaque reduction of `CC(C)n1ncc2c(C(=O)NCC(C)(C)N)cc(C3CC3)nc21` is reported as 8.56% and 0% (Enterovirus D68; viral replication; RD, US/MO/14-18947; 10 nM).
